Results gathered from unrelated publications.
± marks the error that the study gave.

Compound | tested on | assay | test system | conditions | scale | quantity | result
CC[C@H](C)[C@H](NC(=O)[C@H](Cc1ccccc1)NC(=O)[C@@H](NC(=O)[C@@H](NC(=O)[C@H](CC(C)C)NC(=O)[C@H](CCCCN)NC(=O)[C@@H](N)CCCCN)[C@@H](C)CC)[C@@H](C)O)C(=O)N[C@@H](CC(C)C)C(=O)N[C@@H](CCCCN)C(=O)N[C@@H](CCCCN)C(=O)N[C@H](C(=O)N[C@@H](CCCNC(=N)N)C(=O)N[C@@H](CCC(=O)O)C(=O)N[C@@H](CCCCN)C(=O)N[C@@H](CCCCN)C(=O)N[C@@H](CCCCN)C(=O)N[C@@H](CCC(=O)O)C(=O)N[C@@H](CS)C(=O)N[C@@H](CC(C)C)C(=O)N[C@H](C(=O)O)C(C)C)[C@@H](C)O | voltage-gated sodium channel | resurgent sodium current, kinetic model fit | mouse CA3 neurons | 200 µM, membrane potential -30 mV | – | rate constant kIO | 8 s⁻¹
Cc1cc(C)nc(NC(=S)N2CCN(c3ccc(C(F)(F)F)cn3)CC2)c1 | panel of other dehydrogenases | enzyme activity | – | concentration not given | – | inhibition | inactive
O=C1CC(c2ccoc2)c2ccc(NC(=O)c3ccccc3)cc2N1 (stereo not drawn) | recombinant aromatase CYP19 | absorption spectroscopy | – | 100 µM, no androstenedione | – | Soret peak wavelength | 420 nm
CNC(=O)C1CCN(c2ccccc2NC(=O)c2ccc(-c3cc(O)ccc3C)c(C)n2)CC1 | human EPHA2/EPHA4 | phosphorylation, inhibitor, Western blot | 12Z | 15 min pretreatment, added: EFNA5 0.5 µg/mL | lowest concentration | significant inhibitory concentration | 1 nM
COc1cc(CCC(C)=O)ccc1O | mAb 2-LD2 | antibody binding, indirect competitive ELISA | – | added: coating antigen hapten 3-OVA | – | IC50 | > 4 µg/mL
CCCCCC(C)NCC(=O)O (stereo not drawn) | DNA | binding, UV-vis absorption titration | – | – | – | midpoint concentration | 794 µM
Cc1sc2ncn(CC(=O)N3CCCC3)c(=O)c2c1-c1cccc(Br)c1 | NMDA receptor, mouse | single-channel current, outside-out patch | cortical neurons | concentration not given, holding -80 mV, added: Ca2+ 1.25 mM | – | unitary current amplitude 1 | -3.45 ± 0.59 pA
COc1ccc2c(=O)c(/C=C/C(=O)N3CCN(C(=S)SCCN(C)C)CC3)coc2c1 | tomato spotted wilt virus | viral infection, half-leaf method | Nicotiana glutinosa | 500 µg/mL | – | inactivation effect | 61.9 ± 2.5%
O=C(c1ccc(F)cc1)N1CCCC(c2nc(-c3ccccn3)no2)C1 (stereo not drawn) | mGluR5 | calcium fluorescence, positive allosteric modulator | mGluR5-expressing cells | added: glutamate EC20 | – | EC50 | 348 ± 70 nM
CC[C@H](C)[C@H](NC(=O)[C@H](CC(C)C)NC(=O)[C@@H](NC(=O)[C@@H](NC(=O)[C@H](CC(C)C)NC(=O)[C@H](CCCCN)NC(=O)[C@@H](N)CCCCN)[C@@H](C)CC)[C@@H](C)O)C(=O)N[C@@H](Cc1ccccc1)C(=O)N[C@@H](CCCCN)C(=O)N[C@@H](CCCCN)C(=O)N[C@H](C(=O)N[C@@H](CCCNC(=N)N)C(=O)N[C@@H](CCC(=O)O)C(=O)N[C@@H](CCCCN)C(=O)N[C@@H](CCCCN)C(=O)N[C@@H](CCCCN)C(=O)N[C@@H](CCC(=O)O)C(=O)N[C@@H](CS)C(=O)N[C@@H](CC(C)C)C(=O)N[C@H](C(=O)O)C(C)C)[C@@H](C)O | voltage-gated sodium channel | resurgent sodium current, kinetic model fit | mouse CA3 neurons | 200 µM, membrane potential -30 mV | – | rate constant kOI | 107 s⁻¹
[64Cu+2].c1ccc(CNCc2ccc(CN3CCCN4CCNCCCN(CC4)CC3)cc2)nc1 | CXCR4 | – | NOD/SCID mouse, U87 and U87-stb-CXCR4 xenografts, heart | iv, 30 min, ex vivo | – | tissue uptake | 2.46 ± 0.52 %ID/g
CC(C)(C)C(=O)Nc1ccc2[nH]c(CN3CCC(N(CCCN4CCOCC4)CC4OC(n5cnc6c(N)ncnc65)C(O)C4O)CC3)nc2c1 (stereo not drawn) | DOT1L R231Q | Western blot | H460 R231Q cells | concentration not given | reference: untreated | H3K79me2 level | decreased
CCN(CC)CCSC(=S)N1CCN(C(=O)/C=C/c2coc3ccc(OC)cc3c2=O)CC1 | tomato spotted wilt virus | viral infection, half-leaf method | Nicotiana glutinosa | 500 µg/mL | – | inactivation effect | 59.7 ± 7.2%
O=C(c1ccc(F)cc1)N1CCCC(c2nc(-c3ncccn3)no2)C1 (stereo not drawn) | mGluR5 | calcium fluorescence, positive allosteric modulator | mGluR5-expressing cells | added: glutamate EC20 | – | EC50 | > 10000 nM
C=CC(=O)Oc1ccc(Cl)cc1C(=O)Nc1ccc([N+](=O)[O-])cc1Cl | androgen receptor | Western blot | CWR22Rv1 | 1 µM, 16 h | – | AR protein level | inhibited

For quick reference, copied from above:
Compound | tested on | assay | test system | conditions | scale | quantity | result
O=C(c1ccc(F)cc1)N1CCCC(c2nc(-c3ncccn3)no2)C1 (stereo not drawn) | mGluR5 | calcium fluorescence, positive allosteric modulator | mGluR5-expressing cells | added: glutamate EC20 | – | EC50 | > 10000 nM
CC[C@H](C)[C@H](NC(=O)[C@H](Cc1ccccc1)NC(=O)[C@@H](NC(=O)[C@@H](NC(=O)[C@H](CC(C)C)NC(=O)[C@H](CCCCN)NC(=O)[C@@H](N)CCCCN)[C@@H](C)CC)[C@@H](C)O)C(=O)N[C@@H](CC(C)C)C(=O)N[C@@H](CCCCN)C(=O)N[C@@H](CCCCN)C(=O)N[C@H](C(=O)N[C@@H](CCCNC(=N)N)C(=O)N[C@@H](CCC(=O)O)C(=O)N[C@@H](CCCCN)C(=O)N[C@@H](CCCCN)C(=O)N[C@@H](CCCCN)C(=O)N[C@@H](CCC(=O)O)C(=O)N[C@@H](CS)C(=O)N[C@@H](CC(C)C)C(=O)N[C@H](C(=O)O)C(C)C)[C@@H](C)O | voltage-gated sodium channel | resurgent sodium current, kinetic model fit | mouse CA3 neurons | 200 µM, membrane potential -30 mV | – | rate constant kIO | 8 s⁻¹
